Measured values pooled from the literature.
Lines come from different studies, so protocols differ.
Method: steady-state kinetics
B1: enzyme (Lactiplantibacillus plantarum, UniProt Q06115); chain CTAITYQSYNNYFGRNFDYEISYNEMVTITPRKYPLVFRKVENLDHHYAIIGITADVESYPLYYDAMNEKGLCIAGLNFAGYADYKKYDADKVNITPFELIPWLLGQFSSVREVKKNIQKLNLVNINFSEQLPLSPLHWLVADKQESIVIESVKEGLKIYDNPVGVLTNNPNFDYQLFNLNNYRALSNSTPQNSFSEKVDLDSYSRGMGGLGLPGDLSSMSRFVRAAFTKLNSLSMQTESGSVSQFFHILGSVEQQKGLCEVTDGKYEYTIYSSCCDMDKGVYYYRTYDNSQINSVSLNHEHLDTTELISYPLRSEAQYYAVN
B2: RDH13 (Homo sapiens, UniProt Q8NBN7); chain MSRYLLPLSALGTVAGAAVLLKDYVTGGACPSKATIPGKTVIVTGANTGIGKQTALELARRGGNIILACRDMEKCEAAAKDIRGETLNHHVNARHLDLASLKSIREFAAKIIEEEERVDILINNAGVMRCPHWTTEDGFEMQFGVNHLGHFLLTNLLLDKLKASAPSRIINLSSLAHVAGHIDFDDLNWQTRKYNTKAAYCQSKLAIVLFTKELSRRLQGSGVTVNALHPGVARTELGRHTGIHGSTFSSTTLGPIFWLLVKSPELAAQPSTYLAVAEELADVSGKYFDGLKQKAPAPEAEDEEVARRLWAESARLVGLEAPSVREQPLPR
B3: CYP4F3 A27G/C46R/I34V/M14V/R49Q/W12G (Homo sapiens, UniProt Q08477); chain MALLLAVFLLGPVAASPWLLLLLVGGSWLLARVLAWTYTFYDNCRRLQCFPQPPKRNWFLGHLGLVTPTEQGMRVLTQLVATYPQGFKVWMGPIFPVIRFCHPNIIRSVINASAAIVPKDKVFYSFLKPWLGDGLLLSAGEKWSRHRRMLTPAFHFNILKPYMKIFNESVNIMHAKWQLLASEGSARLDMFEHISLMTLDSLQKCVFSFDSHCQEKPSEYIAAILELSALVTKRHQQILLYIDFLYYLTPDGQRFRRACRLVHDFTDAVIQERRRTLPSQGVDDFLQAKAKSKTLDFIDVLLLSKDEDGKKLSDEDIRAEADTFMFEGHDTTASGLSWVLYHLAKHPEYQERCRQEVQELLKDREPKEIEWDDLAQLPFLTMCIKESLRLHPPVPAVSRCCTQDIVLPDGRVIPKGIICLISVFGTHHNPAVWPDPEVYDPFRFDPKNIKERSPLAFIPFSAGPRNCIGQAFAMAEMKVVLGLTLLRFRVLPDHTEPRRKPELVLRAEGGLWLRVEPLS
B4: efeB (Bacillus subtilis, UniProt P39597); chain IGASGLGGLAPLVQTAAKPSKKDEKEEEQIVPFYGKHQAGITTAHQTYVYFAALDVTAKDKSDIITLFRNWTSLTQMLTSGKKMSAEQRNQYLPPQDTGESADLSPSNLTVTFGFGPGFFEKDGKDRFGLKSKKPKHLAALPAMPNDNLDEKQGGGDICIQVCADDEQVAFHALRNLLNQAVGTCEVRFVNKGFLSGGKNGETPRNLFGFKDGTGNQSTKDDTLMNSIVWIQSGEPDWMTGGTYMAFRKIKMFLEVWDRSSLKDQEDTFGRRKSSGAPFGQKKETDPVKLNQIPSNSHVSLAKSTGKQILRRAFSYTEGLDPKTGYMDAGLLFISFQKNPDNQFIPMLKALSAKDALNEYTQTIGSALYACPGGCKKGEYIAQRLLES
B5: aspC A106G/A218G/F210I/I29V/I33V/I68L/I71L/N30D/N64T/S135A/T100S/V136I/V375I (Escherichia coli, UniProt P00509); chain MFENITAAPADPILGLADLFRADERPGKVDLGVGVYKDETGKTPVLTSVKKAEQYLLENETTKTYLGLDGLPEFGRCTQELLFGKGSALINDKRARTAQSPGGTGGLRVAADFLAKNTSVKRVWVSNPSWPNHKAIFNSAGLEVREYAYYDAENHTLDFDALINSLNEAQAGDVVLFHGCCHNPTGIDPTLEQWQTLAQLSVEKGWLPLIDFAYQGFGRGLEEDAEGLRAFAAMHKELIVASSYSKNFGLYNERVGACTLVAADSETVDRAFSQMKAAIRANYSNPPAHGASVVATILSNDALRAIWEQELTDMRQRIQRMRQLFVNTLQEKGANRDFSFIIKQNGMFSFSGLTKEQVLRLREEFGVYAVASGRINVAGMTPDNMAPLCEAIVAVL
B6: enzyme (Pseudomonas poae, UniProt A0A2S9EJ63); chain MSTQHYDYIIVGGGSAGSVLANRLSAQADKRVLLIEAGADTPEHDTPTDILDGLQPWLPRLAGERYFWPGLNILRASEHGDIPREPQLYEQARILGGGSSVNMMVANRGLPRDYDEWARLGADGWDWQGVLPYFRKLERDLDFGHSHPEQHGQDGPIPIARVDSRHWGSFTRASAQALHTQGLNDIVDQNGRFEDGYFAPAVAIEHDQRVSSARAYLNAAVRARPNLSVWADTTVRQLTVKGQRVTGVQAVRDGRTVELAGDEVILAAGALQSPAFLLRAGIGPADQLRDLGIEVIADRPGVGRNLWDHSSIGLSASLHHPQVPSDEPGAAHLLAARVSSGVEPSVPGDLYLGIAPNAALGLASAVLWVNKPSSSGHLRLRSKDPADYPAVEFNLLSDRRDLERLRQGLRLLARVFAHPAVAAFSGPPRLSRFAQASNEGPLLSELLANDAQLERYLRTHVGGVWHASGTCRIGRADDPQAVVDHAGRVHGVQGLRVADASVFPSIPTANTNLPTLMIAEKIAEAILANA
B7: enzyme E64A (Nitrosopumilus maritimus, UniProt A9A5X4); chain MDSQKFDSIIFDCDGVLVDITQSYDKTIDKTCRYVLKEFAKIDSITIDHKIIDGFKSSGGFNDAVDLVYAAILSLYTANKLNKKPSEFIYDVISNTDKTGIRSVQSYLESIYDVSEFLSKLGSLGDRHNNPVYSIFDQFFFGPELYGKLFDKQSKFSEEGMISNDKVILSVSLLETLQKEFGKKIAVVTGRGIESIRYSLKDMMDYFDTKNSAFLEDEPRELAKPNPATLIRAIQSMESKNCLYVGDSMEDYMMAKDAAQAGHSTTFCAIVGTSTNPEDRRKLFADSGVEMILESINDIPKVLNLV
Sequence of UniProt Q9Z0E8 (whole entry, looked up): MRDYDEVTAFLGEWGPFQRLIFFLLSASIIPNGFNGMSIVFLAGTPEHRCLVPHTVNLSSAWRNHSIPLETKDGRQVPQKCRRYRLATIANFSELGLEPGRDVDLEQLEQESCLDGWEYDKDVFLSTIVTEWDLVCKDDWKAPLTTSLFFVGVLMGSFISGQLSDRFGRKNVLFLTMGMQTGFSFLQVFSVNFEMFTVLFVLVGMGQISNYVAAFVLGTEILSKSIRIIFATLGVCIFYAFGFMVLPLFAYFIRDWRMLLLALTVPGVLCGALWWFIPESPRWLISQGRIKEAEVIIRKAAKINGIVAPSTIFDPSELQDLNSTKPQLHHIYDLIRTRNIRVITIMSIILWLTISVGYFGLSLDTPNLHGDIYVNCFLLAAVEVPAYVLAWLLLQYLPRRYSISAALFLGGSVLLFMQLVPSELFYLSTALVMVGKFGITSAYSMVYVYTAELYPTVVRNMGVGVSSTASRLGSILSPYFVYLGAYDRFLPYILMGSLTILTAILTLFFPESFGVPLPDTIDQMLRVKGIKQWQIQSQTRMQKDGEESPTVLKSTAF
Sequence of UniProt P78804 (whole entry, looked up): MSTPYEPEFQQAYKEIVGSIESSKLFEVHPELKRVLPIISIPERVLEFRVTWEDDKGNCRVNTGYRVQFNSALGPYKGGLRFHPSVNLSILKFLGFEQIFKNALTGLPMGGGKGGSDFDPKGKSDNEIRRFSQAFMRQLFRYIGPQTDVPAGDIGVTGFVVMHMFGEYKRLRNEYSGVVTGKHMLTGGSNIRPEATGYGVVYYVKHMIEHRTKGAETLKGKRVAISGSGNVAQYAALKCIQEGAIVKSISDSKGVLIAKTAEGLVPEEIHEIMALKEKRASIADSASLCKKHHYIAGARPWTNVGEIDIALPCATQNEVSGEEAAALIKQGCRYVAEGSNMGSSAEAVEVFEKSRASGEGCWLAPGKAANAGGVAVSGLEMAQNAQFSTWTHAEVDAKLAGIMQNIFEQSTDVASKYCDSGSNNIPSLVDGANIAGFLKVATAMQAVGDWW
Sequence of UniProt Q978S7 (whole entry, looked up): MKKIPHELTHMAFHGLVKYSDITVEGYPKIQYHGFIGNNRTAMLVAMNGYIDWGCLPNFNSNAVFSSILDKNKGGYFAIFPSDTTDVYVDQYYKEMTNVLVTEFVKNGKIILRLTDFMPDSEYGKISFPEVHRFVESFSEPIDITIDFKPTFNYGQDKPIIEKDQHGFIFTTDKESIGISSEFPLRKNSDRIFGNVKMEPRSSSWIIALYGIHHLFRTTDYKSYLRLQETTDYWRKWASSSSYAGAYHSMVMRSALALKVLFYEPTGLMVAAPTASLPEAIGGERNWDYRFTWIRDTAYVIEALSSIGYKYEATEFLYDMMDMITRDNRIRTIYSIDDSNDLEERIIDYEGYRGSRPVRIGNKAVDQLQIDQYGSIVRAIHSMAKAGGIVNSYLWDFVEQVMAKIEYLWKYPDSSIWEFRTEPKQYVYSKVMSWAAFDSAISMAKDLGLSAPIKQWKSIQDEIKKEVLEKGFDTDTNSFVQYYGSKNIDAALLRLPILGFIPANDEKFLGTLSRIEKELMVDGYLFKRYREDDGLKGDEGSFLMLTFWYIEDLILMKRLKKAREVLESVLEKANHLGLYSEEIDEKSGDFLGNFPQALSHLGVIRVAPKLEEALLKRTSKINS
Sequence of UniProt Q944I4 (whole entry, looked up): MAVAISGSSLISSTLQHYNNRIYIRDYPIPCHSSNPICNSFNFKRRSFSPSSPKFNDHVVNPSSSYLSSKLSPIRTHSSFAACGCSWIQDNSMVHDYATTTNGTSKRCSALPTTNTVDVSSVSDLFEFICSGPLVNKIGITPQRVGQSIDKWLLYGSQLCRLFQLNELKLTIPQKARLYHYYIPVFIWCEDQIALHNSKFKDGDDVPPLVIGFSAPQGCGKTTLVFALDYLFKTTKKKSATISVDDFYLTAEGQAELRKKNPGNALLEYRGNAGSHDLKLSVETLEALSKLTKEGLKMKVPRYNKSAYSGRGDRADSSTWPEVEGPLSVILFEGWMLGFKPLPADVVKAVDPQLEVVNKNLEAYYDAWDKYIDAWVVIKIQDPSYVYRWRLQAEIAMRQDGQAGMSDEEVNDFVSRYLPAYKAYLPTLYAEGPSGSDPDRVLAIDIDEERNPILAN
Sequence of UniProt P09546 (whole entry, looked up): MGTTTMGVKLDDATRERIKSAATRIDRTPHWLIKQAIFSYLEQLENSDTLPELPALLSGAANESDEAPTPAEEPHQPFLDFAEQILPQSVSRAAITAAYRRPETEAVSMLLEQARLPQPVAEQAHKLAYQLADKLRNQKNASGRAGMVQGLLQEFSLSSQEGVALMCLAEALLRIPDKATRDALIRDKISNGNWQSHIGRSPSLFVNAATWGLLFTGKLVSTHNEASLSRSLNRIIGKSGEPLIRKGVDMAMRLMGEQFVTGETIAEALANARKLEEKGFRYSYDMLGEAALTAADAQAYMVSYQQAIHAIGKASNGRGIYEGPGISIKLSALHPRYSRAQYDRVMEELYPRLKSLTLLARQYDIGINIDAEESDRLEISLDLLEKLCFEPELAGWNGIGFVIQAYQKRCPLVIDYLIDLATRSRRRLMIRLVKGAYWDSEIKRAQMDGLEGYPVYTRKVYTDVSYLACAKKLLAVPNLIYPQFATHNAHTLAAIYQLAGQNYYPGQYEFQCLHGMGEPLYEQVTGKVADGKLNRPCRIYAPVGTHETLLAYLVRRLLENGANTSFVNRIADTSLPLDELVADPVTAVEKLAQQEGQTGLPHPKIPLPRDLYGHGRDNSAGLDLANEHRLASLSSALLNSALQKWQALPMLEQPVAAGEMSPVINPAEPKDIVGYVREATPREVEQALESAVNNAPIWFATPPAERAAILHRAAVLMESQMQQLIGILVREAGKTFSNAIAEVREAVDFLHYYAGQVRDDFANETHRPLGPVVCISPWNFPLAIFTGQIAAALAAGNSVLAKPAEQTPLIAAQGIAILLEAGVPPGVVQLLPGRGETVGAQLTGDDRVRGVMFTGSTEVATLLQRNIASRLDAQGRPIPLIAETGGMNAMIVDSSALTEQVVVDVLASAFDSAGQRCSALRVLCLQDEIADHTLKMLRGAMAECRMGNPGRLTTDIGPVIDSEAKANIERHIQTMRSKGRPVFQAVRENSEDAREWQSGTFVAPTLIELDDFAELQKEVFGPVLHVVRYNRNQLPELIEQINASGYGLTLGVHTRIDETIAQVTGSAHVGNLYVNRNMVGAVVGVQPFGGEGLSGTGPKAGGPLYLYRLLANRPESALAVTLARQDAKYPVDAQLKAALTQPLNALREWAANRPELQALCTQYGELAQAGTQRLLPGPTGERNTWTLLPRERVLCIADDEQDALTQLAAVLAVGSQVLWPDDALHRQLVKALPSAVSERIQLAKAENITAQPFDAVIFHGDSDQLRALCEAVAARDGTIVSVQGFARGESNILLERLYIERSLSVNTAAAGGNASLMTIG

Substance | substrate | conditions | Km [µM]
putA (Escherichia coli, UniProt P09546) | O=C(O)[C@@H]1CCCN1 | pH 7.4, together with: CoQ1 | 47500
B1 (enzyme) | CC(C)C[C@H](NC(=O)CC[C@@H](C)[C@H]1CC[C@H]2[C@@H]3[C@H](O)C[C@@H]4C[C@H](O)CC[C@]4(C)[C@H]3C[C@H](O)[C@]12C)C(=O)O | pH 6.2, 37 °C | 1120
B2 (RDH13) | CC1=C(/C=C/C(C)=C/C=C/C(C)=C/C=O)C(C)(C)CCC1 | pH 7.4, 37 °C | 35
enzyme (Arabidopsis thaliana, UniProt Q944I4) | O=C(O)[C@H](O)CO | pH 7.8, 30 °C | 210
enzyme (Schizosaccharomyces pombe, UniProt P78804) | NC(=O)C1=CN([C@@H]2O[C@H](COP(=O)(O)OP(=O)(O)OC[C@H]3O[C@@H](n4cnc5c(N)ncnc54)[C@H](O)[C@@H]3O)[C@@H](O)[C@H]2O)C=CC1 | pH 7, 30 °C, apparent | 57000
Slc22a5 (Mus musculus, UniProt Q9Z0E8) | COc1cc([C@@H]2c3cc4c(cc3[C@@H](O[C@@H]3O[C@@H]5CO[C@@H](C)O[C@H]5[C@H](O)[C@H]3O)[C@H]3COC(=O)[C@H]23)OCO4)cc(OC)c1O | not purified | 76.4
enzyme (Bacillus licheniformis, UniProt Q65NC0) | O=C(O)C[C@H](O)C(=O)O | pH 7, room temperature, apparent, not purified, together with: Na+ 5 mM | 7.1
B3 | CCCCC/C=C\C/C=C\C/C=C\C/C=C\CCCC(=O)O | pH 7.4 | 29.3
enzyme (Sargassum horneri, UniProt A0A097IUG6) | Nc1ncnc2c1ncn2[C@@H]1O[C@H](COP(=O)(O)OP(=O)(O)O)[C@@H](O)[C@H]1O | pH 6.5, 25 °C, together with: 16 mM PEP | 140
B4 (efeB) | CN(C)c1ccc(C(=C2C=CC(=[N+](C)C)C=C2)c2ccccc2)cc1 | pH 4, 25 °C, apparent | 500
CYP2J2 L2A (Homo sapiens) | CC/C=C\C/C=C\C/C=C\C/C=C\C/C=C\CCCC(=O)O | – | 251
enzyme (UniProt A0A4R3LQ44) | O=C(O)[C@H](O)[C@@H](O)[C@H](O)[C@H](O)CO | pH 8, 37 °C | 6500
B5 | O=C(O)C(=O)Cc1ccccc1 | pH 7.5, 25 °C, together with: PLP 20 µM, ammonium acetate 10 mM | 210
enzyme (Methanosarcina mazei, UniProt Q8PVB1) | Nc1ncnc2c1ncn2[C@@H]1O[C@H](COP(=O)(O)OP(=O)(O)OP(=O)(O)O)[C@@H](O)[C@H]1O | pH 8.5, 25 °C, apparent, anoxic, together with: L-Thr 10 mM | 84
enzyme (Thermoplasma volcanium, UniProt Q978S7) | OC[C@H]1O[C@H](O[C@H]2O[C@H](CO)[C@@H](O)[C@H](O)[C@H]2O)[C@H](O)[C@@H](O)[C@@H]1O | pH 3.7, 30 °C | 66400
acsA I222V/L233M (Pseudomonas chlororaphis) | O=C(O)CCC(F)(F)F | pH 7 | 900
enzyme (Bacteroides fragilis, UniProt Q5LAD6) | C[C@@H]1O[C@@H](Oc2ccc([N+](=O)[O-])cc2Cl)[C@@H](O)[C@H](O)[C@@H]1O | pH 8.4, 40 °C | 552
B6 (enzyme) | O=Cc1ccc(C=O)o1 | pH 8, 30 °C, together with: 2 µM FAD | 2500
HNL E79H/H103V/K236M/N104A/T11G (Hevea brasiliensis) | CC(=O)Oc1ccc([N+](=O)[O-])cc1 | pH 7.2, 22 °C | 420
B7 (enzyme E64A) | N[C@H](COP(=O)(O)O)Cc1c[nH]cn1 | pH 7.8, 25 °C | 63
